Measured values of several laboratories.
Numbered parts are unrelated; each lists some results of a single study.

Set 1 — method: protein binding microarray; molecule type: double-stranded DNA, one strand shown; sample: in vitro; tested at: not given; relative to: not given; reading: higher = stronger binding; endpoint: E-score
Target: Histone acetyltransferase KAT6A, winged helix 1, GST fusion (KAT6A, Homo sapiens, UniProt Q92794, residues 1-85)
Notes: 8-mer, flanks averaged, mean of 2 arrays, mostly near background
Residues (chain): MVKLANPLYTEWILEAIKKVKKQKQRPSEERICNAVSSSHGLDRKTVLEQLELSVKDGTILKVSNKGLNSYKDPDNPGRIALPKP
GGGGCACC: 0.245
CCGAAGGC: 0.0768
CGTTTTGC: 0.0577
CGTCCACG: 0.243
CTGATCCA: -0.214
AAGGGCCA: -0.13
CAAAGTTA: -0.106
CATCAGAG: -0.0483
CACGAGGG: -0.166
CAAAGTGG: -0.248
GTTTCCTA: -0.14
CGTATAGA: -0.0965
CATTATAG: 0.0204

Set 2 — method: RNA Bind-n-Seq; molecule type: RNA; sample: in vitro; tested at: 365 nM; relative to: no-protein control; reading: higher = stronger binding; endpoint: RBNS enrichment (R)
Target: RNA binding protein fox-1 homolog 2, RRM domain, GST-SBP tag (RBFOX2, Homo sapiens, UniProt O43251-10, residues 100-194)
Notes: natural RNA segment, single round, ends assumed
All sequences stand within: GGGAGUUCUACAGUCCGACGAUC … UGGAAUUCUCGGGUGCCAA
AGAAAAAUAAAACAAGCUGCAUUUAUAGACUUGCUUGGAAUUGAAAUGAACAUAGCCAGUUCCUACCCAACCCUGCCCUGCCUUUUUUUUUUUUUUUAAAGUGUGGUCCU: 0.546
ACUUCAGAGUCUUUCAUGCCAGCGUUUGAGCUCCUCUGGGUAAAAUCUUCCCUUUGUUGACUGGCCUUCACAGCCAUGGCUGGUGACAACAGAGGAUCGUUGAGAUUGAG: 0.392
GGUGACUGUUUAACAAGCUGUGCAUCCCCCACAAAAAUAGGAGUGCCCUAUUUGUAGUCUCCACCUCUCUGCACAGCUCCUUCUGGGUGGUCCUCAGCAGGGUUUUGACC: 0.454
CCGUCCCUCCCCAGAUGGGGCGUUGAGUCCAUAUUUAAACUGGCCACCCUCACAGUUCUAACUUAGCAAGUGCUUUUCUUUAGAACCCCUUCUUAACGAGCAAUAUGUCU: 0.432
GCUUCAGUGGCCACCAGCCUCGUCACAUACACCAGCAUCUUUCUGUACCUCCUCCCUUUGGUGACCUGAAGUCACUGUGACAGUUCUCCAGGAAGGAGGAGCUUCCUACU: 0.719
CUACCUGGCCUGUUGGAGGAAAGGUUUGCCAAUCUCUGUUUUAUACCAUUAACUAUGAGAUUAACAAAAACUUUUACCUUUGUGCAGAAGGUUAAAAAAAAAAAAACAUG: 0.452
UUAACUCUCCCUAUAUAUUAACUCUCAAGUGCUGUAUUUUAAAAUUCAGCCCGUUUUUUAAAAAAGCUAAAUACAGUAGCAGCCAGCAGCCAGUCACUAAGAAAGACAGU: 0.593
GGGUGGGAUGUGCGUUCUCCGCUCGUGGUGAUGUCAGGAGCUCCUCGGAGGGAACAGAGCGGCUGUGUAUGCAGCCUGCAGGUUUCCAUACACUGAAGCUUUUACCUCAA: 0.404

Set 3 — method: RNA Bind-n-Seq; molecule type: RNA; sample: in vitro; tested at: 100 nM; relative to: input RNA pool; reading: higher = stronger binding; endpoint: bound/input enrichment
Target: RING finger protein unkempt homolog, zinc fingers 1-6, SBP tag (UNK, Homo sapiens, UniProt Q9C0B0, residues 30-357)
Sequence of UniProt Q9C0B0 (30-357, looked up): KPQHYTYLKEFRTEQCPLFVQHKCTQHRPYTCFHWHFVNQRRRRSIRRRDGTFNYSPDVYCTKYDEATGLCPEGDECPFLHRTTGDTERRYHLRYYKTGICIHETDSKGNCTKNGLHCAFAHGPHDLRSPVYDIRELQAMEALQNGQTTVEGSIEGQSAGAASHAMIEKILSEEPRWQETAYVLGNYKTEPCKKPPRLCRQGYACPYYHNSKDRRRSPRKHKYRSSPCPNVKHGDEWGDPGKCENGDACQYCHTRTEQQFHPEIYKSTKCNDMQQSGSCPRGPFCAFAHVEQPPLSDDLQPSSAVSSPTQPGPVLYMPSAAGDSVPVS
Notes: RNA with constant flanks, vertebrate orthologous sites, ends assumed
All sequences stand within: GGGAGUUCUACAGUCCGACGAUC … CAACAGAGGAUUGAGCAUCA
UUCAGGCACAACUGACUGGUUCACAGCAUCCCUUACAUAGUUACCUAUCGAGUGCAAGUAUUGGCAGUUUUCAGGAAACAUCUAGGCAGUCGUCUUUAUCCUGUAGUUCAGUCCGAGAUU: 0.694 ratio
AGCUUCUGGAGACAUUUGGCCUGGCCUUUCAGCGUAUGAUAACAGUCCAAGGUCACCCCAUAGUCCUUCUAUUGCCUCCCCGCCUAGUCAGAGUUCAUCUUGCUCUGAUGCCCCUCUGCU: 0.814 ratio
AUUUUUUAAAGUUUUUUUAAUUUAAUUUUUCCUUUUGGGGGUACAGUUUGCUCUACCAAAUAGUGAUCGUAACAAAUUGAUCUGUUUUGGAUGUUGCUAUAGUGACAUGCAGUUAUAUAU: 0.856 ratio
AUGCAUUAUUUUCCGACCAUUUUUAGGAAGUUUAUCAUCUUGUGAAUCUGUGUGUGCAUGUGUGUUUGUGUGUGUGUGUGUGUGAUUAGAAUAAAGAACUAUGAUAUAAAGUGUAUAUUU: 1.02 ratio
UGUCCUUUCUUACUGUCCCCAGCCAGGGCCGGGGACCGGUGUUUCACUGAGGACCUGCAUUAGAAACAUUUUUAAAAUUGUUGUACAGGAAGAGAUGUGUCUAAAACAGCAUCUUAAAGC: 0.845 ratio
AGCGACCCAGGGAUUCAGGACUGGUUUUACAAAUAUGCCGGGUAGAUACGGAAGCAACAACAGAAUUGGACAACCAAGACCGUGAUGUACUCUUACCUUAUUUUUACAAGGAAUAUGUAG: 0.37 ratio
UUCAUUACCUGAGCCGAGUGGAGGUGACGGAGUUUGAAGACAUCAAGUCAGGCUACAGAAUAGAUUUUUGUUUAAUGGUUUCACGUAACACUUUAGUGACUAUUUUUAUUUUUUAAAAUU: 1.24 ratio
GGCUCCUCCUAUGAGCGAGAGUUUGGGAGGAGCCCACGAUGACCCUCAGCUAUUCCAAUCCAGUCUUUUCUUUUUUAAAAUUAGUGUAUUUAUUAUGACGAUGAUGACUCCCUGGUGCAC: 1.29 ratio

Further values, each from its own experiment
PhoQ, residues 284 288 289 292 302 303 AGGLSV
fold induction (PhoP, residues 12 14 15 18 19 SYFRT (Escherichia coli, UniProt P23836); Sort-seq, item: YFP reporter; E. coli; PhoQ-PhoP variant library, with: 10 µM Mg2+; relative to: high Mg2+ state, higher = stronger signaling): 0.565

Some of these lines once more (set 2):
UUAACUCUCCCUAUAUAUUAACUCUCAAGUGCUGUAUUUUAAAAUUCAGCCCGUUUUUUAAAAAAGCUAAAUACAGUAGCAGCCAGCAGCCAGUCACUAAGAAAGACAGU: 0.593
ACUUCAGAGUCUUUCAUGCCAGCGUUUGAGCUCCUCUGGGUAAAAUCUUCCCUUUGUUGACUGGCCUUCACAGCCAUGGCUGGUGACAACAGAGGAUCGUUGAGAUUGAG: 0.392
